Measured values collected from several papers.
Numbered parts are unrelated; each lists some results of a single study.

Study 1
Target: RNA binding protein fox-1 homolog 2, RRM domain, GST-SBP tag (RBFOX2, Homo sapiens, UniProt O43251-10, residues 100-194)
Method: RNA Bind-n-Seq
Form: RNA
Sample: in vitro
Tested at: 365 nM
Setting: natural RNA segment, single round, ends assumed
Baseline: no-protein control
Direction: higher = stronger binding
All sequences stand within: GGGAGUUCUACAGUCCGACGAUC … UGGAAUUCUCGGGUGCCAA
Residues (chain): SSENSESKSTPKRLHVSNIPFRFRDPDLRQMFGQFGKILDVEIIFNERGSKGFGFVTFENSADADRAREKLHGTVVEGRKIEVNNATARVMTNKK
Oligonucleotide	RBNS enrichment (R)
GAUUUGACAAAAUAACAUUUGAGUAUCCGAUUCGCCAUCACCCCCUACCCCAGAAAUAGGACAAUUCACUUCAUUGACCAAGAUGAUCACAUGGAAGGCGGCACAGAGGC	0.384
UUUGAAGUUUUUCAGUGAAGGAAAAGGCCUGAGAUAGGAAGCAGUGCCCUCGCUUCAUGAGGUGGCACAUCUUCGGUGGCCGUUGGCCUGGUCGAGCUUUGGUCAGCUGC	0.36
CACUUUUAUCAGUUUAGUAGUAGUACUGAGAAAAAUCCCUUCAGCUCUAAGAACACUGAAAAAUCCACCGAUUUUUUGGGUAAGCUUCUUGGCAAUACCCUGUGGAUCUG	0.281
GCAUGGGGCUGGCAUGCAGGAAGUGCCCUGUAUCUGCAGCAGGAGGCUCUGGGCUGGGACAUGGCUUAGAGUGACUUUCUGUCUUAGAAAUCAUGGUAUAUCCUCAGGAG	12.6
AAGAGUGAAGGAUUAUGGGAAAACGUCCAUUCCUUUUCCGUGUUUUUGAAGCCCACAGUUUUAGUUGGUACUGACGGAGGGGAGAUUGAGCGAUGCUCUUUCCUUCUCUG	0.335
CUUAUUACCAAACUCUCAACUCAUACGCAGCUUCAAUUUCCGAAAUGGCUUCAAAUAGGGAGGGUAAGAACAUGGAGGAGGGGGGUGCCAGGAAAUGAUACCCAGAACUA	0.297
GGCAUGGUGACUUGUCACUCCUGCCAAAAAUAUUAAAAAUGCCUUUUUUGGAAGGACUACAGAAAGUACCUGAUUUGCACUUGAACCAGAUUAUAGAUUUAAAAGUAUAU	1.62
UGUCUUAGAACCCUCAUUGCUCAGACCUGAAGGCUACUUCUAGGAGCAUGAAGUUUGAGUUUUGUGUUUUUCCAAAGGAUACUUCCUUGGCCCUUUUUCUUUAUUGACUA	0.348

Study 2
Target: RING finger protein unkempt homolog, zinc fingers 1-6, SBP tag (UNK, Homo sapiens, UniProt Q9C0B0, residues 30-357)
Chain of UniProt Q9C0B0 (30-357, looked up): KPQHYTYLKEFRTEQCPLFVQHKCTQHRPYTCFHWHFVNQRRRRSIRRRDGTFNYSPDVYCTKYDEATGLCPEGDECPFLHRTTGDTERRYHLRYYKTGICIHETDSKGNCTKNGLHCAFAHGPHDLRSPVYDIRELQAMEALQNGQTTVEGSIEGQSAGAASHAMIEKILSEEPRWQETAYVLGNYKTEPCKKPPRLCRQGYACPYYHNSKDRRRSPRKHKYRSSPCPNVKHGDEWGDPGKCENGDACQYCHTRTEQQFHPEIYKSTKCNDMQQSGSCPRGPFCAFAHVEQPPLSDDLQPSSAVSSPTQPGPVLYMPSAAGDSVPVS
Method: RNA Bind-n-Seq
Form: RNA
Sample: in vitro
Tested at: 100 nM
Setting: RNA with constant flanks, vertebrate orthologous sites, ends assumed
Baseline: input RNA pool
Direction: higher = stronger binding
All sequences stand within: GGGAGUUCUACAGUCCGACGAUC … CAACAGAGGAUUGAGCAUCA
Oligonucleotide	bound/input enrichment [ratio]
AAACCAUGGCCGCUUUUUACUGCCUCAGUGAGGUAGUCUCCCUUGAUGUUUGGUUGUGACAAGAGCCCAUCGUACCGAAUAAGUCUUUCCACAUUUCAUUUCUUUCACGCUCUUAGUCGC	0.375
CCAGUUUGUAUGUACAUUAUUCACAUUCCUCUCUGUUGUGUUUGGGGGAAGAGAGACAUUUUAGCCUUUUUUAAAGUUAUUGAUUUAAUUUCAUGUUAUUUGGUUGCAUGACGUUCCCGU	2.18
UGGCAUGGGCGCUCUGCAGGGAGCCCCUGGCUGCUUACGCCAGCUAAUUUGGGGCCUGGAUAUUUCUGGUAGGCUUGUGGCUUUUUAAUUUAAAGAUAUUAAGACUUAAUUCACUAAAAU	0.485
UCCCGAACUUCUGGCUUUCAAGCCGCCCGCGGCUGUUUUAGAUACUGGUCUUGUUUCCUUGACGAUGCUUCCCUGUCUGCCGCCUCCUCUUCCCCUGUUGCCGAGGUUUGACUCGUGGAU	0.51
GUUCUGGUACAAAGCUCUACGUACCAACGCUUGUCAUCCUUACAUCAUACCAACUAUUCCUAGGUGUAGGAGUUUAAUAUUUUUCAAAAGUUUUACAUUGCUGUAUAUUCAAAGAUUUCU	0.465
UAUUAGUGUCAUACCAGCAUAUUAACCUCUCGUCUGUGCACAGCUUCAAAUGUUACCGUCUAGUUAGGUUUUUAUUUAAAAUAUGAAAAACUGCUUUUCCCAAGACGUUUUUUAAAAAAA	1.11
AUUAUUCAUUUGAUUAAAAUUAUCUAAAAUAAGAAGUUACCGUUUAUGUCUGCUUUCAGACAGCCCUCCUGUUUUUGGUUUUUUCCUUUUGGCAGGUGUCUGUUGUGUUCUGUUAUACAU	0.356
AAGAACUCUUGCAGUCUUAGAUGUUAUAAAAAAUAUAUAUAUCUGAAUUGUAAGAGUUGUUAGCACAGUUUUUUGGUUUUUUUUUUUUUAGCACUUGUUUUGGGUACAAGGCAUUUUUGA	1.48

Study 3
Target: Interferon regulatory factor 7, full length, phosphomimetic (IRF7, Homo sapiens, UniProt Q92985, residues 1-503, S471D/S472D/S475D/S476D/S477D/S483D/S484D/S487D)
Chain of UniProt Q92985 (whole entry, unmodified, looked up): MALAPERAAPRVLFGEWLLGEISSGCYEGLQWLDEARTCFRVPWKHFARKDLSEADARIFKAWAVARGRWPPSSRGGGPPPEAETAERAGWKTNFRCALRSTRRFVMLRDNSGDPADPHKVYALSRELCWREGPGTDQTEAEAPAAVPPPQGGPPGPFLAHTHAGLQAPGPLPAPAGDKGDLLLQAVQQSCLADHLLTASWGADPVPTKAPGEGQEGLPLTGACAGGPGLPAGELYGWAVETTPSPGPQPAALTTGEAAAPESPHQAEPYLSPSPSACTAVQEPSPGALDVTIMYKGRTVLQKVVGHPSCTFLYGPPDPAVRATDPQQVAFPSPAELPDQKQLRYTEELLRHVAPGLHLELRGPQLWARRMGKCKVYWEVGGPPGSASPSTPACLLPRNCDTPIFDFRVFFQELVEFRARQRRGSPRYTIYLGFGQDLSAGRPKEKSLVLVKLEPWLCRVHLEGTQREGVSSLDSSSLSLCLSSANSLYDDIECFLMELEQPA
Method: protein-binding microarray
Form: double-stranded DNA, one strand shown
Sample: in vitro
Tested at: 2200 nM top
Setting: 60-bp whole probe
Added: salmon DNA 0.4 mg/ml
Baseline: random background probes
Direction: higher = stronger binding
All sequences stand within: GCCTAGCAC … GTCTTGATTCGCTTGACGCTGCTG
Oligonucleotide	fitted relative affinity
TTAGGCCTCCTTATCCTTTAGTGCTAG	0.858 z-score
TTAGAACTGAGTTTGGATTAGTGCTAG	-0.5 z-score
TCACTTTTGCTTTACTGACTGTGCTAG	7.23 z-score
TTAGATATCAGTATCGATTTGTGCTAG	1.07 z-score
TTAGCACTGGGGTTTCGATTAGTGCTA	2.1 z-score
TCCTGCTGTACCCCTAGGGCGTGCTAG	-0.333 z-score
GACTAACTGAGTATCGAGACGTGCTAG	-0.109 z-score
GACGAACTGCGGTATCGAGACGTGCTA	-0.0598 z-score
TTAGATTTCTGGTATCGATTAGTGCTA	1.01 z-score
TTAGATTTCAGTCTCGATCAGTGCTAG	0.758 z-score
GACTAACTGGGGTTTCGAGACGTGCTA	1.33 z-score
TTGGATTTCAGTCTCGATTAGTGCTAG	1.19 z-score
GACGGTTTCAGGACTGGGGACGTGCTA	1.05 z-score
TTGGGACTGCTTTTCCTTTAGTGCTAG	1.47 z-score
TCTCTTTTCACTTTCTTTACGTGCTAG	5.73 z-score
GACGGTCTCCTACTGCTTACGTGCTAG	0.826 z-score
TACGGTATCCTACTGCTGACGTGCTAG	1.03 z-score
GAGGGTTTCGACTTTCGGGACGTGCTA	6.46 z-score

Study 4
Target: Prothrombin, mature alpha-thrombin (F2, Homo sapiens, UniProt P00734)
Method: aptamer microarray, sandwich
Form: DNA with 2'F-ANA
Sample: in vitro
Tested at: 200 nM
Setting: whole 15-mer aptamer, many near background
Added: Cy3 exosite-II aptamer, 400 nM
Direction: higher = stronger binding
Oligonucleotide: GGTTGGTGTGGTTGG
Modification	mean fluorescence intensity
2'F-ANA at 1 2 3 4 8 11 12 13	263 a.u.
2'F-ANA at 1 5 7 8 9 10 12 13 15	49.2 a.u.
2'F-ANA at 1 4 6 9 12 13 15	143 a.u.
2'F-ANA at 1 2 6 8 9 12 13 15	251 a.u.
2'F-ANA at 2 4 5 6 8 9 10 11 12 13 14	48.5 a.u.
2'F-ANA at 1 4 5 6 10 11	57.3 a.u.
2'F-ANA at 2 3 6 7 8 10 11 12 14 15	246 a.u.
2'F-ANA at 2 4 6 7 9 10 11 13 14	58.2 a.u.
2'F-ANA at 2 4 6 10	85.8 a.u.
2'F-ANA at 1 2 5 12 15	112 a.u.
2'F-ANA at 2 3 5 7 8 14 15	75.4 a.u.
2'F-ANA at 1 5 6 9 11 15	54.5 a.u.
2'F-ANA at 1 2 9 10 11 14 15	107 a.u.
2'F-ANA at 3 4 5 6 9 13 14	120 a.u.
2'F-ANA at 4 6 8 9 10 12 15	91.6 a.u.
2'F-ANA at 2 3 4 6 8 11 12 13 15	569 a.u.
2'F-ANA at 1 3 5 8 10 11 13 14	49.4 a.u.
2'F-ANA at 1 2 3 4 5 6 8 12 13	78.1 a.u.
2'F-ANA at 1 2 4 6 8 9 11 12 14 15	54.8 a.u.
2'F-ANA at 2 3 4 8 9 10 11 13	192 a.u.
2'F-ANA at 2 4 5 7 8 9 10 11 14	75.4 a.u.
2'F-ANA at 1 4 5 7 8 9 11 12 13 15	68.1 a.u.
2'F-ANA at 3 10 12	711 a.u.
2'F-ANA at 3 4 6 7 14	302 a.u.

Excerpt of the above (study 4):
Modification	mean fluorescence intensity
2'F-ANA at 2 3 4 6 8 11 12 13 15	569 a.u.
2'F-ANA at 1 3 5 8 10 11 13 14	49.4 a.u.
2'F-ANA at 1 2 3 4 5 6 8 12 13	78.1 a.u.
2'F-ANA at 1 2 4 6 8 9 11 12 14 15	54.8 a.u.
2'F-ANA at 2 3 4 8 9 10 11 13	192 a.u.
2'F-ANA at 2 4 5 7 8 9 10 11 14	75.4 a.u.
2'F-ANA at 1 4 5 7 8 9 11 12 13 15	68.1 a.u.
2'F-ANA at 3 10 12	711 a.u.
2'F-ANA at 3 4 6 7 14	302 a.u.
